{"data": "Published values of several laboratories", "note": "Each line is one published result; not all experiments were run side by side. ± gives the spread as reported."}
{"Structure (SMILES)": "CC(C)C[C@@H]1NC(=O)[C@H](CCCCN)NC(=O)[C@H](CC(N)=O)NC(=O)[C@H](CCCNC(=N)N)NC(=O)[C@H]([C@@H](C)O)NC(=O)[C@@H]2CSSC[C@@H]3NC(=O)[C@H]([C@@H](C)O)NC(=O)CNC(=O)CNC(=O)[C@H](C(C)C)NC(=O)[C@@H]4CSSC[C@H](NC(=O)[C@H](CCCCN)NC(=O)[C@H](CSSC[C@H](NC(=O)[C@H](C(C)C)NC(=O)[C@@H]5CCCN5C1=O)C(=O)NCC(=O)N[C@@H](CCC(=O)O)C(=O)N[C@@H]([C@@H](C)O)C(=O)N4)NC(=O)CNC(=O)[C@@H]1CCCN1C(=O)[C@H]([C@@H](C)O)NC(=O)[C@H](CC(N)=O)NC3=O)C(=O)N[C@@H](CO)C(=O)N[C@@H](Cc1c[nH]c3ccccc13)C(=O)N1CCC[C@H]1C(=O)N[C@@H](C(C)C)C(=O)N2", "test": "HPLC", "system": "ammonium bicarbonate", "conditions": "180 µM, 14 days, pH 9.0, 25 °C, deamidation stability", "endpoint": "remaining peptide", "value": "98.4 ± 0.5%"}
{"Structure (SMILES)": "CSCC[C@H](NC(=O)CN)C(=O)N[C@@H](CCCNC(=N)N)C(=O)N[C@@H](Cc1c[nH]c2ccccc12)C(=O)N[C@@H](CO)C(=O)N[C@@H](CCCNC(=N)N)C(=O)N[C@@H](CCCCN)C(=O)N[C@@H](CCSC)C(=O)N1CCC[C@H]1C(=O)N[C@@H](CS)C(=O)N[C@H](C(=O)N[C@@H](CO)C(N)=O)C(C)C", "test": "12G5 competition, SUP-T1 cells", "system": "human plasma", "conditions": "20 µM, 8 h, 37 °C", "endpoint": "remaining activity", "value": "30 ± 3%"}
{"Structure (SMILES)": "CCOC(=O)c1sc(Nc2ncccn2)nc1-c1ccccn1", "system": "human liver microsomes", "conditions": "60 min", "endpoint": "remaining parent", "value": "63.1 area %"}
{"Structure (SMILES)": "CC(C)C[C@@H]1NC(=O)CNC(=O)[C@H](CC(N)=O)NC(=O)[C@H](CCCNC(=N)N)NC(=O)[C@H]([C@@H](C)O)NC(=O)[C@@H]2CSSC[C@@H]3NC(=O)[C@H]([C@@H](C)O)NC(=O)CNC(=O)CNC(=O)[C@H](C(C)C)NC(=O)[C@@H]4CSSC[C@H](NC(=O)[C@H]([C@@H](C)O)NC(=O)[C@H](CSSC[C@H](NC(=O)[C@H](C(C)C)NC(=O)[C@@H]5CCCN5C1=O)C(=O)NCC(=O)N[C@@H](CCC(=O)O)C(=O)N[C@@H]([C@@H](C)O)C(=O)N4)NC(=O)CNC(=O)[C@@H]1CCCN1C(=O)[C@H]([C@@H](C)O)NC(=O)[C@H](CC(N)=O)NC3=O)C(=O)N[C@@H](CO)C(=O)N[C@@H](Cc1c[nH]c3ccccc13)C(=O)N1CCC[C@H]1C(=O)N[C@@H](C(C)C)C(=O)N2", "test": "HPLC", "system": "ammonium bicarbonate 0.1 M", "conditions": "180 µM, 7 days, pH 9.0, 37 °C, deamidation stability", "endpoint": "remaining peptide", "value": "77 ± 1%"}
{"Structure (SMILES)": "CC(C)C[C@H](NC(=O)[C@H](N)C(C)C)C(=O)N[C@@H](CCCNC(=N)N)C(=O)N[C@@H](Cc1c[nH]c2ccccc12)C(=O)N[C@@H](CO)C(=O)N[C@@H](CCCNC(=N)N)C(=O)N[C@@H](CCCCN)C(=O)N[C@@H](CC(C)C)C(=O)N1CCC[C@H]1C(=O)N[C@@H](CS)C(=O)N[C@H](C(=O)N[C@@H](CO)C(N)=O)C(C)C", "test": "12G5 competition, SUP-T1 cells", "system": "human plasma", "conditions": "concentration not given, 2 h", "endpoint": "remaining activity", "value": "75 ± 8%"}
{"Structure (SMILES)": "Cc1cc(C(=O)NC(C)(C)COc2cccc3c2C(N)=NS(=O)(=O)N3)cc(C)n1", "test": "LC-MS", "system": "Sprague-Dawley rat liver microsomes", "conditions": "10 µM, 20 min, pH 7.4, with: NADPH", "scale": "reference: time 0", "endpoint": "remaining parent compound", "value": "104%"}
{"Structure (SMILES)": "CSCC[C@H](N)C(=O)N[C@H](CC(C)C)C(=O)N[C@@H](CCCNC(=N)N)C(=O)N[C@@H](Cc1c[nH]c2ccccc12)C(=O)N[C@@H](CO)C(=O)N[C@@H](CCCNC(=N)N)C(=O)N[C@@H](CCCCN)C(=O)N[C@@H](CC(C)C)C(=O)N1CCC[C@H]1C(=O)N[C@@H](CS)C(=O)N[C@H](C(=O)N[C@@H](CO)C(N)=O)C(C)C", "test": "12G5 competition, SUP-T1 cells", "system": "human plasma", "conditions": "concentration not given, 8 h", "endpoint": "remaining activity", "value": "45 ± 5%"}
{"Structure (SMILES)": "O=C1CC2(CCCC2)CC(=O)N1CCCCN1CCN(c2ncccn2)CC1", "test": "LC-MS", "system": "Sprague-Dawley rat liver microsomes", "conditions": "10 µM, 20 min, pH 7.4, with: NADPH", "scale": "reference: time 0", "endpoint": "remaining parent compound", "value": "78%"}
{"Structure (SMILES)": "CCOc1ccc2ccc(=O)oc2c1", "system": "human liver microsomes", "conditions": "1 µM, 60 min, pH 7.4, with: with cofactors", "endpoint": "remaining compound", "value": "17.1%"}
{"Structure (SMILES)": "COc1cc(C2C3=C(COC3=O)N(CCO)c3cc4c(cc32)CCC4)cc(OC)c1OC (stereo not drawn)", "test": "MS", "system": "human liver microsomes", "conditions": "10 µM, 0, 30, 60 min", "endpoint": "remaining parent compound", "value": "10%"}
{"Structure (SMILES)": "CSCC[C@H](NC(=O)[C@H](CCCCN)NC(=O)[C@H](CCCNC(=N)N)NC(=O)[C@H](CO)NC(=O)[C@H](Cc1c[nH]c2ccccc12)NC(=O)[C@H](CCCNC(=N)N)NC(=O)[C@@H](CC(C)C)NC(=O)[C@@H](N)CCSC)C(=O)N1CCC[C@H]1C(=O)N[C@@H](CS)C(=O)N[C@H](C(=O)N[C@@H](CO)C(N)=O)C(C)C", "test": "12G5 competition, SUP-T1 cells", "system": "human plasma", "conditions": "20 µM, 8 h, 37 °C", "endpoint": "remaining activity", "value": "77 ± 24%"}
{"Structure (SMILES)": "CC(C)OC(=O)c1sc(Nc2ncccn2)nc1-c1cnccn1", "system": "mouse liver microsomes", "conditions": "60 min", "endpoint": "remaining parent", "value": "36.2 area %"}
{"note": "A few entries again:"}
{"Structure (SMILES)": "CC(C)C[C@H](NC(=O)[C@H](N)C(C)C)C(=O)N[C@@H](CCCNC(=N)N)C(=O)N[C@@H](Cc1c[nH]c2ccccc12)C(=O)N[C@@H](CO)C(=O)N[C@@H](CCCNC(=N)N)C(=O)N[C@@H](CCCCN)C(=O)N[C@@H](CC(C)C)C(=O)N1CCC[C@H]1C(=O)N[C@@H](CS)C(=O)N[C@H](C(=O)N[C@@H](CO)C(N)=O)C(C)C", "test": "12G5 competition, SUP-T1 cells", "system": "human plasma", "conditions": "concentration not given, 2 h", "endpoint": "remaining activity", "value": "75 ± 8%"}
